Experimental data from different studies.
A part holds a random share of what one study measured.
Chain of UniProt P13945 (whole entry, looked up): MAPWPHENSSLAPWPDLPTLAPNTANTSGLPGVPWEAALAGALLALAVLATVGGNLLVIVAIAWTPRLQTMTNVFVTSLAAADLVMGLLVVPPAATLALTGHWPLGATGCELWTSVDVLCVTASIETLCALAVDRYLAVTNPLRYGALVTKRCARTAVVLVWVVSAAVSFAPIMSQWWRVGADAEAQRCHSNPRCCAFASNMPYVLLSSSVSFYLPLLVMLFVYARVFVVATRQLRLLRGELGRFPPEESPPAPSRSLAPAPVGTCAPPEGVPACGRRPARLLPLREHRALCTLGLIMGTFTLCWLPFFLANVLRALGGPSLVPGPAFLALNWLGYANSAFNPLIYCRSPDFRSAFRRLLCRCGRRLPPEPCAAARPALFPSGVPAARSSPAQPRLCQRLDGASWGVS

Block 1 — organism: Sarcocystis neurona; effect on: parasite growth; concentration: 10 µM; time: 96 h; baseline: untreated
`Oc1c(Cl)cc(Cl)c(Cl)c1Cc1c(O)c(Cl)cc(Cl)c1Cl`: “log2 fold change” -2.52.
`CC(C)[C@]12O[C@H]1[C@@H]1O[C@]13[C@]1(O[C@H]1C[C@H]1C4=C(CC[C@@]13C)C(=O)OC4)[C@@H]2O` — result for “log2 fold change”: -2.85.
`O=C(O)C(Cl)Cl`: “log2 fold change” 0.27.
For `CN1C(=O)CN=C(c2ccccc2)c2cc(Cl)ccc21`, “log2 fold change” read -1.47.

Block 2 — effect on: enzyme activity; mode: inhibitor; concentration: 10 µM
Target: Calcium/calmodulin-dependent protein kinase type II subunit alpha (CAMK2A, Homo sapiens, UniProt Q9UQM7)
Chain of UniProt Q9UQM7 (whole entry, looked up): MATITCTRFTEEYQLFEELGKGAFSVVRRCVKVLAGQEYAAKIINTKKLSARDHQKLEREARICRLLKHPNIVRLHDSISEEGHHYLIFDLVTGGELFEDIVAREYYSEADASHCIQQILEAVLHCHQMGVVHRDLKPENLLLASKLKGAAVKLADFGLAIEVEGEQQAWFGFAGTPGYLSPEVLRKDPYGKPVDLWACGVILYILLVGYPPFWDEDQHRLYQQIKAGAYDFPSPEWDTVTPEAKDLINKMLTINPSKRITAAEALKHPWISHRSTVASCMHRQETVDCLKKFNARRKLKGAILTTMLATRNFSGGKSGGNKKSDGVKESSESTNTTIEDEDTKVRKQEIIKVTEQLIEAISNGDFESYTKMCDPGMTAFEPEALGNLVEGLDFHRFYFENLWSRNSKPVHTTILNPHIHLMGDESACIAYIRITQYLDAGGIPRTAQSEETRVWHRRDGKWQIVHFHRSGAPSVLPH
For `Cc1ccc2c(c1)[C@]13CCCC[C@@H]1[C@H](C2)N(C)CC3`, the inhibition was -3%.
For `COc1ccc(/C=C/c2cc(OC)cc(OC)c2)cc1`, the inhibition was -19%.
The inhibition of `CC(O)(CS(=O)(=O)c1ccc(F)cc1)C(=O)Nc1ccc(C#N)c(C(F)(F)F)c1` (stereo not shown) is reported as -9%.
`COC(=O)C[C@](O)(CCC(C)(C)O)C(=O)O[C@@H]1C(OC)=C[C@]23CCCN2CCc2cc4c(cc2[C@H]13)OCO4` gave an inhibition of -7%.

Further values, each from its own experiment
CDPK1: Calcium-dependent protein kinase 1 (CDPK1, Plasmodium falciparum, UniProt P62344)
Chain of UniProt P62344 (whole entry, looked up): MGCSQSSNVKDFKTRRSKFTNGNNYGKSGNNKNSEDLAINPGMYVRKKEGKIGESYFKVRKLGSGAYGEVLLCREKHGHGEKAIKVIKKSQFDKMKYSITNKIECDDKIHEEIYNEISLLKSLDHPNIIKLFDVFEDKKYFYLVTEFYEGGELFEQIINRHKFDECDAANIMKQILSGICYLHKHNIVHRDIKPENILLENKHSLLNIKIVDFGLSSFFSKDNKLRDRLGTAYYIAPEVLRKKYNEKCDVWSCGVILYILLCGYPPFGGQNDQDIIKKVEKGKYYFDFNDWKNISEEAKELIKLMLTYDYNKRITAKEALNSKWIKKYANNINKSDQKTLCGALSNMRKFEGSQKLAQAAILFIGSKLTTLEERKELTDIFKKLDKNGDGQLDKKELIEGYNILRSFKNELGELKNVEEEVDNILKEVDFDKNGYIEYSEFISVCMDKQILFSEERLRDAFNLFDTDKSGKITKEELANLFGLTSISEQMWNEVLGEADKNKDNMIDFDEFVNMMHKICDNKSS
The remaining binding of `Cn1nc(C(F)(F)F)cc1-c1cnc(N2CCc3cc(S(=O)(=O)Nc4c(F)cc(Cl)cc4F)cc(N4CCCC4=O)c32)nc1` is reported as 70% (CDPK1; cell-free assay, competition with immobilised ligand; 1 µM).
Under “GI histopathology sum score”, `[N-]=[N+]=CC(=O)CC[C@H](N)C(=O)O` is recorded as 6 (histopathology, scale 0-6; mouse C57BL/6 CES1-/-, GI tissue; intravenous, 1 mg/kg; direction not given).
`Cc1c(N2CCNCC2)nc2ccc(Br)cc2c1C(=O)NC[C@H](CCC(=O)O)c1ccccc1Cl` gave an inhibition of -10.3% (ADRB3 (Homo sapiens, UniProt P13945); ligand displacement; 10 µM).
With `C[C@H](c1ccnc(Nc2nc3ccc(-c4cc(N(C)C)ncn4)cc3[nH]2)c1)N1CCN(C(=O)CC(F)(F)F)CC1` the remaining binding was 100% (CDPK1; cell-free assay, competition with immobilised ligand; 0.1 µM).
The remaining binding of `CCOC(=O)c1cc2cc(-c3cc(C(=O)NCc4ccc(C(=O)O)cc4)nn3C)ccc2[nH]1` is reported as 100% (CDPK1; cell-free assay, competition with immobilised ligand; 0.1 µM).
